Published values gathered from unrelated publications.
A part holds a random share of what one study measured.

Study 1 — method: RNA Bind-n-Seq; form: RNA; sample: in vitro; tested at: not given; reference: input RNA pool; direction: higher = stronger binding
Target: RING finger protein unkempt homolog, zinc fingers 1-6, GST-SBP tag (UNK, Homo sapiens, UniProt Q9C0B0, residues 30-357)
Sequence of UniProt Q9C0B0 (30-357, looked up): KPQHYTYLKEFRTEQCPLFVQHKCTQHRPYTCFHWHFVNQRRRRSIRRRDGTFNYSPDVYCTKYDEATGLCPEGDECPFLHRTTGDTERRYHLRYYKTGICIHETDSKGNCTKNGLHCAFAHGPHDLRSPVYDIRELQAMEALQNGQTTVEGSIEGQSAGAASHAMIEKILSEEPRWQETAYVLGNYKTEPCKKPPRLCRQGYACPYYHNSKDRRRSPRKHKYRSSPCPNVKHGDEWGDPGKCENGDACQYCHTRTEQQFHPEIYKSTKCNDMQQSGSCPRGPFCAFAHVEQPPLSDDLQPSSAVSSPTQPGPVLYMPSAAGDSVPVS
Setting: RNA with constant flanks, human and mouse sites, ends assumed
For `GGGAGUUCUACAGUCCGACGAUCAAGCCUUUCUCUCUCACUUCCCGAGGUGCCUUGUUUCAGGAGAUCUCCAGCAAUGACAUUAGUUCCAAACUCACUCUUCUUACACUUCACUUCCCCAGACUACGGAUUCUCUGGUGCCCCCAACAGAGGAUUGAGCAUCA`, the bound/input enrichment was 1.02 ratio.
With `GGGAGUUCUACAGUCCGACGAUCAGAAUCUUGGGACUGUUUUACUUAAUUGGUCAUUGAUAGCUUAACAAACAUGGAGAUAAGAUUAGAAAUCUUGACAUCAACAGGUAUUAAGCAGAAAAAACCAUGGCCACGUGUCUCCUGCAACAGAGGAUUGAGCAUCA` the bound/input enrichment was 0.126 ratio.
With `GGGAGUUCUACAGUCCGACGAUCCAGUACUUUGUGAAGGUGGUGCCCACUGUGUACAUGAAGGUGGACGGAGAGGUACUGAGGACAAAUCAGUUCUCUGUGACCAGACAUGAGAAGGUUGCCAAUGGGCUGUUGGGCGACCAACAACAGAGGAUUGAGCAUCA` the bound/input enrichment was 0.138 ratio.
For `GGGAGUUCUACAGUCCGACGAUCCACCCUAUAGAGGUAGUUGUCACACACACACACACACACACACACACACUGUUCACUUCCUAGCUCCUUUCCCCUCCACCUUUCUUUCAGAGUUUGUUCUCAUUUUUCAGAAUUCUUCUGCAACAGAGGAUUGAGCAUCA`, the bound/input enrichment was 3.25 ratio.
`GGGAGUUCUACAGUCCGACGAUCGCCAUUAUACAUAUAAAGAAGCAUCAGGUGUCUGUGGAGGGGACAAAUCAAACAGAUGUGAAAGCAGUUGGGGGACCAGCAAAGCUGCUUGUGGUAUCUCUAGAGGAAGCCUGGCCUCUGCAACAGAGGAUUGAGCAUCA` has a bound/input enrichment of 0.182 ratio.
`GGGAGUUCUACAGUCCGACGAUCUUAGCAGCCAACGAAGCCCAGCUUCUGAGGAAGAUCCAGCUGUUGUGCCUUAUGGAGAUGACUUUCACACGGCCUGCCAACCACAGACAACUCACUUUUGAAGAAAUUGCCAAAAGUGCCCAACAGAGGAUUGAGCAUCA` gave a bound/input enrichment of 0.126 ratio.
For `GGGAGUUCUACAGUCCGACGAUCGAGUACAUUGUCUACGACAUUGCUCAGGUGAAUCUCAAAUACCUGCUGAAACUCAAGUUCAAUUUUAAGACAUCCCUGUGGUAAAGUGCGAGGGGUGGGCUGUGCCCAGCACCCAGGGCCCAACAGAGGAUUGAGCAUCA`, the bound/input enrichment was 0.212 ratio.
With `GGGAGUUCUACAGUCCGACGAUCCACCAGCCCAGUCCGGAUCAUUUCUGGCCCCGCUUCCCGGACGCUCUGCGCCCUUUCUUUCCUUGGGAUCAAUUGGAAAACGAGGAUUCCAGCGUGCACAUUUCCCCCCGGCAGAAGCGACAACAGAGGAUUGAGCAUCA` the bound/input enrichment was 0.144 ratio.

Study 2 — method: protein-binding microarray; form: double-stranded DNA, one strand shown; sample: in vitro; tested at: 250 nM; setting: 60-bp whole probe; together with: salmon DNA 0.4 mg/ml; reference: random background probes; direction: higher = stronger binding; shared flanks, not repeated: GCCTAGCAC … GTCTTGATTCGCTTGACGCTGCTG
Target: Interferon regulatory factor 5, full length, phosphomimetic (IRF5, Homo sapiens, UniProt Q13568-2, residues 1-514, K96S/S451D/S453D/S456D/S462D)
`TTGGGACTGGGGTTTCGGTTAGTGCTA` gave a log fluorescence of 5.74 z-score.
`TCATTGGTTGAACATGAACTGTGCTAG` has a log fluorescence of 0.173 z-score.
`TGGTTTTACTTTCTATCTCTGTGCTAG` gave a log fluorescence of 5.57 z-score.
`TTAGTTTTCGGACTGGGTTAGTGCTAG` gave a log fluorescence of 3.4 z-score.
`GACGATATCAGTCACGAGACGTGCTAG` has a log fluorescence of 1.22 z-score.
The log fluorescence of `TCAGCTATTTTATATGCTACTGTGCTA` is reported as 0.349 z-score.
`GACGATTTCGGGTATGGAGACGTGCTA` gave a log fluorescence of 3.93 z-score.
The log fluorescence of `GACGGTTTCGCCTTTCGGGACGTGCTA` is reported as 5.89 z-score.
`GACGAGCTCAGTCTCGAGACGTGCTAG` gave a log fluorescence of -0.282 z-score.
The log fluorescence of `GACGGTCTTCTTATCCTGACGTGCTAG` is reported as 0.037 z-score.
`TTAGGTTTCCTACTGCTCTAGTGCTAG` has a log fluorescence of 0.231 z-score.
`TCATCATTATTGTGTCAAACTGTGCTA` has a log fluorescence of 0.959 z-score.
`GACGATATCAGTCGCGAGACGTGCTAG` gave a log fluorescence of 0.692 z-score.
With `TAGTATTTTTTTCCAGAGGGGTGCTAG` the log fluorescence was 0.56 z-score.
The log fluorescence of `TTAGGACTGCTAATCCTTTAGTGCTAG` is reported as -0.213 z-score.
For `GGCGGTATCCTTATCCTGACGTGCTAG`, the log fluorescence was -0.108 z-score.
`TTAGGACTGGACACTGGGTTAGTGCTA` gave a log fluorescence of -0.397 z-score.
`TCAAGTTTTCTTTTCATACTGTGCTAG` has a log fluorescence of 1.97 z-score.
For `CACCATCTAGTTCTGCTTTGGTGCTAG`, the log fluorescence was 0.229 z-score.

Study 3 — method: protein-binding microarray; form: double-stranded DNA, one strand shown; sample: in vitro; tested at: not given; direction: higher = stronger binding
Target: Hepatocyte nuclear factor 3-beta, forkhead domain (FOXA2, Homo sapiens, UniProt Q9Y261, residues 142-269)
Setting: k-mer, scored over probes, only values ≥0.25
Construct (chain): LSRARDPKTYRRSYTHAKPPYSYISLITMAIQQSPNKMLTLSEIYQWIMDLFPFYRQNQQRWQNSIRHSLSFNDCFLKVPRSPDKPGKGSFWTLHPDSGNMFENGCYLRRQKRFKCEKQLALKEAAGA
`CAATATCA` gave an E-score of 0.284.
The E-score of `ATTTGTTC` is reported as 0.369.
`TCTATTCA` gave an E-score of 0.258.
The E-score of `AAAATGGT` is reported as 0.254.
For `CTTGTTTA`, the E-score was 0.297.
`CTGTAGTA` has an E-score of 0.332.
The E-score of `AAAAGATA` is reported as 0.256.
The E-score of `AATGTATC` is reported as 0.31.
For `ATTTGTCA`, the E-score was 0.265.
`TACAACCA` gave an E-score of 0.288.
`GATATATC` has an E-score of 0.265.
`ACAAAATG` has an E-score of 0.32.
For `ATAATAGG`, the E-score was 0.264.
For `TCATAACA`, the E-score was 0.349.
`AAACAAAT` gave an E-score of 0.341.
The E-score of `GTATTTGA` is reported as 0.342.
The E-score of `ATATATGC` is reported as 0.298.
The E-score of `AGATAAAT` is reported as 0.256.
For `AATGTCAC`, the E-score was 0.282.
`ATGAACAT` gave an E-score of 0.283.
The E-score of `GATATTTA` is reported as 0.3.
With `ACTAACAG` the E-score was 0.285.
With `AATGTGTA` the E-score was 0.308.
`ATAATACC` gave an E-score of 0.319.
The E-score of `AACGTAAA` is reported as 0.273.

Study 4 — method: RNA Bind-n-Seq; form: RNA; sample: in vitro; tested at: 365 nM; reference: no-protein control; direction: higher = stronger binding
Target: RNA binding protein fox-1 homolog 2, RRM domain, GST-SBP tag (RBFOX2, Homo sapiens, UniProt O43251-10, residues 100-194)
Setting: natural RNA segment, single round, ends assumed
Residues (chain): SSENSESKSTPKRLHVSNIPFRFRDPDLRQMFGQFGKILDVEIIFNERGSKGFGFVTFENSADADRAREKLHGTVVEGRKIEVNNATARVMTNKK
`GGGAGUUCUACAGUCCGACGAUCAAGAAAGUGGACAGGAUGCUACUGAGGGACAGAGAAGUUAGCUUUUCUUGAGAGCGGCCUGGGGUGGUUGGGUUGGAAGAAGCUGCUGCAGCGGCUAUAGUCAGAAGCCCUGGAAUUCUCGGGUGCCAA` — result for “RBNS enrichment (R)”: 0.977.
For `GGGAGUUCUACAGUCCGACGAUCGUGGAUUCUAGCAAAAGAGCUGGAAAAAAGUCAGACUCUCCACAGACCCCCUAUGGGGGACCCCCAACUCAAGGCCAAGGACUGGGCGUAUCGGAUGCUCAUAACACCCCUGGAAUUCUCGGGUGCCAA`, “RBNS enrichment (R)” read 0.717.
Under “RBNS enrichment (R)”, `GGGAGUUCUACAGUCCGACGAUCCAUCUUUUAACUCUAACACAGGGAUACUAACCUUUUUCCCUGGCUAAGACAGACUGAGGGCAUUGCAUUACAAUGGCCAGAAACUACACCCAUGAGUGCAACGACCAAGGUGGAAUUCUCGGGUGCCAA` is recorded as 0.323.
Under “RBNS enrichment (R)”, `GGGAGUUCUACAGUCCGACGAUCAGGGGAGAAAGAUAACUGCUAAAAUUCCCCUGUACCCCAUCCUUUCUUGUCCUUUCCCCUUCAGAUGGAGACUUCAUUAUGUUAAUGAACAAGAUAUGAAGAAAAUGGCAUGGAAUUCUCGGGUGCCAA` is recorded as 0.456.
For `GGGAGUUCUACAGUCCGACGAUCAUAUGGAUUUUUUUCCUUAAGAAAAUCUCCUUUUAGGAGAUCAUGGUGUCACAGUGUUUGGUUCUUUUGUUUUGUUUUUUAACACUUGUCUCCCCUCAUACACAAAAGUAUGGAAUUCUCGGGUGCCAA`, “RBNS enrichment (R)” read 0.42.
`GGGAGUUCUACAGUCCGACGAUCAAGAACUGAUUGUGACUUGUAGUUCUUCUCUAGAGGAUGCUGCUAGAACGUGGUUUUGCUUUGCAUUUUGUAGUUCUUCCCGUCAGUGCUGUGUGUAGUCCUGCUUCUUCUGGAAUUCUCGGGUGCCAA`: “RBNS enrichment (R)” 1.29.
Under “RBNS enrichment (R)”, `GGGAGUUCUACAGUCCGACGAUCGUGGGCCAGUACUAACUUAACUUGGUGUUCAGCAAGGGAUGCAGACGGAGAGCUCCCUUCUGCAGGACUAAGCAGAUGCGUGUCUUUCCCACCCGUGACUGUAAGAAUGCUGGAAUUCUCGGGUGCCAA` is recorded as 3.88.
Under “RBNS enrichment (R)”, `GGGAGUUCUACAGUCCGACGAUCUCAGUUGACCUUUGUGGAGGUUUUAUCUAUAGAGUAGUUCUUGCCUUGUCAUAGACCUUAUUAGGGUUUGGGGUUUUGUUCCUUCGUUGUUUUCCUCUCACUAUUUAAAGUGGAAUUCUCGGGUGCCAA` is recorded as 0.559.

A few entries again (study 4):
For `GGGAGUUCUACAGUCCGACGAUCAUAUGGAUUUUUUUCCUUAAGAAAAUCUCCUUUUAGGAGAUCAUGGUGUCACAGUGUUUGGUUCUUUUGUUUUGUUUUUUAACACUUGUCUCCCCUCAUACACAAAAGUAUGGAAUUCUCGGGUGCCAA`, “RBNS enrichment (R)” read 0.42.
`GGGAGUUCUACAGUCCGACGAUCAAGAACUGAUUGUGACUUGUAGUUCUUCUCUAGAGGAUGCUGCUAGAACGUGGUUUUGCUUUGCAUUUUGUAGUUCUUCCCGUCAGUGCUGUGUGUAGUCCUGCUUCUUCUGGAAUUCUCGGGUGCCAA`: “RBNS enrichment (R)” 1.29.
Under “RBNS enrichment (R)”, `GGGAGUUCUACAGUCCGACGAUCGUGGGCCAGUACUAACUUAACUUGGUGUUCAGCAAGGGAUGCAGACGGAGAGCUCCCUUCUGCAGGACUAAGCAGAUGCGUGUCUUUCCCACCCGUGACUGUAAGAAUGCUGGAAUUCUCGGGUGCCAA` is recorded as 3.88.
Under “RBNS enrichment (R)”, `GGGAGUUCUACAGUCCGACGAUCUCAGUUGACCUUUGUGGAGGUUUUAUCUAUAGAGUAGUUCUUGCCUUGUCAUAGACCUUAUUAGGGUUUGGGGUUUUGUUCCUUCGUUGUUUUCCUCUCACUAUUUAAAGUGGAAUUCUCGGGUGCCAA` is recorded as 0.559.
